# Assay results collected from several papers.
# A part holds a random share of what one study measured.

# Set 1
# Target: TAR DNA-binding protein 43, full length, His tag (TARDBP, Homo sapiens, UniProt Q13148, residues 1-414)
# Method: RNA Bind-n-Seq
# Molecule type: RNA
# Sample: in vitro
# Tested at: 20 nM
# Setting: 6-mer, flanks averaged, single round
# Together with: 150 mM KCl
# Baseline: input library
# Direction: higher = stronger binding
Sequence,6-mer enrichment (R)
GUCAGA,0.874
AUGUAC,0.664
CUAUCA,0.545
UCAUCG,0.592
CAUAAG,0.7
AUGACG,0.898
GGCUGU,1.41
GUUGAC,0.777
CCCUCG,0.636
CAUUCC,0.557
GCAAUG,0.982
ACUUGU,0.615
AGAGUA,0.851
GUAACU,0.642
AGCUAG,0.862
CAUACA,0.599
UGACGA,0.814
GUUUAC,0.62
AAAGCC,0.627
GACUCA,0.669
CAGCCU,0.651
UAAUUU,0.664
UACCCG,0.649

# Set 2
# Target: Histone acetyltransferase KAT6A, both winged helices, GST fusion (KAT6A, Homo sapiens, UniProt Q92794, residues 1-181)
# Method: protein binding microarray
# Molecule type: double-stranded DNA, one strand shown
# Sample: in vitro
# Tested at: not given
# Setting: 8-mer, flanks averaged, mean of 2 arrays, mostly near background
# Baseline: not given
# Direction: higher = stronger binding
# Construct (chain): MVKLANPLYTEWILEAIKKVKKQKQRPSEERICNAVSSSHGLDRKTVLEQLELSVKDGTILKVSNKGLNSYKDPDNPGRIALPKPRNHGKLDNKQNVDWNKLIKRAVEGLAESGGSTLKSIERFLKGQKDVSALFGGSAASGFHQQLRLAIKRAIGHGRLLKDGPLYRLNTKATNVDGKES
Sequence,E-score
AGCGCCAC,0.197
CCCACGCG,0.238
CTCTAAAC,0.00564
AATTACTG,-0.137
CTACCCTA,-0.13
CCTCCCTA,-0.241
GGTGTGCA,-0.123
GGACGTGA,-0.0396
CCTCAAGC,-0.0637
CCAAACAG,-0.214
AAATTGTG,-0.281
ACGAGGCC,-0.0787
CGATGTTC,0.00889
TAAGAATA,-0.0654
GAACAGGA,-0.0817
GGTTGAAA,-0.0934
AGGCAAAC,-0.134
GGCACATA,0.108

# Set 3
# Target: Fragile X messenger ribonucleoprotein 1, C-terminal low-complexity region (Fmr1, Mus musculus, UniProt P35922)
# Method: RNA Bind-n-Seq
# Molecule type: RNA
# Sample: in vitro
# Tested at: 200 nM
# Setting: whole 134-nt RNA, ends assumed
# Together with: 150 mM LiCl
# Baseline: input library
# Direction: higher = stronger binding
# Each molecule: 7-deaza-guanosine replaces G
# All sequences stand within: GGGAGUUCUACAGUCCGACGAUC … UGGAAUUCUCGGGUGUCAAGG
Sequence,log2 enrichment
ACCAUGCAGGUGGGCAAAUUUGGGAAGUGGGGCAAGGGGGGGAUAGGGAGGGGGGUAACACUUUGGGAACAGGUGGUCCCAGGUCGUUUC,1.51
CACAGACAACACGCACCCACACAGACACAGAGGGAAGGGGUUGGGAUGGGGACAGGGUGCACAGCAGGGCGGGGUAGGACCCUAGCCCCU,-0.313
CACAGACAACACGCACCCACACAGACCCAGAGGGAAGGGGUUGGGAUGGGGACAGGGUGCACAGCAGGGCGGGGUAGGACCCCAGCCCCU,-0.709
CAAGUCCUGUGCUACACAUCGUAUGUACCGAAUCGGGGAGGGGUGGGGAAAGGGGAAAGUAUUAUGUUACGCCGUUCGGAUCUGCACUUC,0.186
GCAGGAAGUAAAAACAAAUGGAAAUGCUUCGGAUAGUGGCAGGGGUGGGGGUUGCUAAGGAAAGGGUGGAAAGGGAGUGGGUAAAGAGUU,1.54
UCCUGUGCUACACAUCGUAUGUACCGAAUCGGGGUUUUUUUGGGGAAAGGGGUUUGGGGAAAGUAUUAUGUUACGCCGUUCGGAUCUGCA,-0.957
UAACUUUAGAGGAGGAUCUGAUGGAUAUGGCAGUGGACGAGGAUUUGGGGAUGGCUAUAAUGGGUAUGGAGGAGGACCUGGAGGUGGCAA,-0.984
UUCCUCAAGUCCUGUGCUACACAUCGUAUGUACCGAAUCGGAGGGAGGAGGAAAGUAUUAUGUUACGCCGUUCGGAUCUGCACUUCCAGC,-2.42
GUCCUGUGCUACACAUCGUAUGUACCGAAUCGGGUGGGUUUUUUUGGGUUUUUUUGGGAAAGUAUUAUGUUACGCCGUUCGGAUCUGCAC,-0.077
CACAGACAACACGCACCCACACAGACACAGAGGGAAGGGGUUGGGAUGGGGACAGGGUGCACAGCAGGGCGGGGUAGGACCACAGCCCCU,0.262
CACAGACAACACGCACCCACACAGACACAGAGGGAAGGGGUUGGGAUGGGGACAGGGUGCACAGCAGGGCGGGGUAGGACCCCAGCAAAU,-0.233

# Set 4
# Target: Prothrombin, mature alpha-thrombin (F2, Homo sapiens, UniProt P00734)
# Method: aptamer microarray, sandwich
# Molecule type: DNA with 2'F-ANA
# Sample: in vitro
# Tested at: 200 nM
# Setting: whole 15-mer aptamer, many near background
# Together with: Cy3 exosite-II aptamer, 400 nM
# Direction: higher = stronger binding
# Sequence: GGTTGGTGTGGTTGG
Modification,mean fluorescence intensity [a.u.]
2'F-ANA at 1 4 7 12 14,62.4
2'F-ANA at 2 3 5 7 8 9 13 14,66.1
2'F-ANA at 5 6 8 9 10,42.9
2'F-ANA at 2 3 5 6 7 9 10 11 13,51.5
2'F-ANA at 3 5 9 10 14 15,49.1
2'F-ANA at 1 3 7 8 12 15,753
2'F-ANA at 1 2 3 4 6 7 8 11 12,332
2'F-ANA at 3 4 5 6 7 8 9 11 12 13 14,50.3
2'F-ANA at 3 4 8 9 11 12,837
2'F-ANA at 1 2 4 5 8 9 10 11 12 14 15,47.2
2'F-ANA at 1 3 4 7 10 11 12 13 14 15,51.5
2'F-ANA at 4 6 7 8 11 12 13 14 15,104
2'F-ANA at 1 6 7 8 11 12 15,308
2'F-ANA at 1 2 3 4 6 8 11 12 15,277
2'F-ANA at 4 5 6 10 11 12,52.1
2'F-ANA at 3 12 13 15,1310
2'F-ANA at 1 3 4 5 7 8 11 12 14,60.9

# Set 5
# Target: RNA binding protein fox-1 homolog 2, RRM domain, GST-SBP tag (RBFOX2, Homo sapiens, UniProt O43251-10, residues 100-194)
# Method: RNA Bind-n-Seq
# Molecule type: RNA
# Sample: in vitro
# Tested at: 365 nM
# Setting: natural RNA segment, single round, ends assumed
# Baseline: no-protein control
# Direction: higher = stronger binding
# All sequences stand within: GGGAGUUCUACAGUCCGACGAUC … UGGAAUUCUCGGGUGCCAA
# Residues (chain): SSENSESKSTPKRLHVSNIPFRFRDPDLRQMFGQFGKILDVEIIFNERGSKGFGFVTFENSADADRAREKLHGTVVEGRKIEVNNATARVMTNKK
Sequence,RBNS enrichment (R)
UCUUUAUUCAGGGAGUGAGACAUGGACUAAUUGGUAUCGAUUCCCUGGAUAGCUCGCUUGGAUGAAUUGAUGGUGUUUAGCAGUUUUUAUAUACUUCCUCCGGGUCUCUA,0.719
CAUUUGUAGAAGCAGCCAUCUUCCCCCUGGUGGGGCUUUGGGGUCUAUGUUAGCCAUUUGUAUCUACUUUAGCUCUCAAGUCCAGAUGAGAAUAGGGACCGUGGGGUAUG,0.463
ACCCUGUUAUGCCUUUCUCAGGCUCAUGAUAAAUGUAUUAGUCUGUUCUCAUGCUGCUAUUAAAGACAUACCUGACACUGGGUAAUUUAUAAAGGAAAGAGGUUUAAUGG,0.825
AUCCUCCAUGCCACAUGGUCACUGCUCUCCUCAGGGACCAGGACAAGGUGCUGCUGCUUGCCCAAAUGUUUUCCCAUGGGAUAUGUACCGGAAGGUUUAUCACCACCCUG,0.371
GGGGGCCUUGAGUGCCUGGCCAGGUGGCCCUCCACGUGAGGUCAUGGUCACAGCAUGGAGGCCUUGAGAGCCUGGCCAGGUGGCCCUCCAUGUGAGGUUGUGGUCACAGC,1.67
UUGCCUUCACCCAUAAGCCCCUCGCACUCUGGUGGCAGGUGCCUUGUCCUCAGGGCUACAGCAGUAGGGAGGUCAGUGCUUCGUGCCUCGAUUGAAGGUGACCUCUGCCC,3.51
GCGUGAGGACAGCAGGGGUUUUUCUUCAGAGUCUAUUUUUUCAGCGACAAGGACCCAGGUCUUCCUGCUGCUGCCAGGGAGAGCAGGGACAGUGCCGCGUGCGAGAUGAG,0.286
AACUACCAUAAAGUUAUAUCCACAUGUAAUUUUUUUGAGGAGAUCGAUAAGAGUAGUAGGCACCACAUGUAAGUCAGGGUCAAAUACUUGGAUAUUUAUCUGCAUAUGCA,0.445
CUGCCCUGCUGUCCUCUGUAUCACACAAGACGUCUCGCUUGCUGUGUCGUGGUUUAGCUCCUCGGUGGUGAGGCGUGCUUCUCCCUCCUGGUGGAGCCAGGCAGCAGGGC,0.857
UGAUUAUGCAACUAAGUAGGCCUCCAGAGCCUCUCUAGUGGCAGAGCAGCUCACACUCCCUCCGCUGGGAACGAUGGCUUCUGCCUAGUACCUAUCCUUGUGUUUCUGAU,0.244
CAUUAAGAAUGGAGUAGUAACUAGAGUGUUAUCUCAGUGCCUGUCUCAUAGUAUAGAAAUGACAAGCACUGCUGGCUAUAGAGAAAAUGUUAUAAAAAUUGUCAUUGAAU,0.929
GAGUUUGUUCAUUUAUUCUCUCUGUAAAACAAGCUGUGCUUUUUUUCUUCUGCCUUUAAAAUGCCACCCGUGUAUUCAAACCAUGGCCACUUGAUACUUAUGUAGAAUCC,0.52

# A few entries again (set 3):
Sequence,log2 enrichment
ACCAUGCAGGUGGGCAAAUUUGGGAAGUGGGGCAAGGGGGGGAUAGGGAGGGGGGUAACACUUUGGGAACAGGUGGUCCCAGGUCGUUUC,1.51
CACAGACAACACGCACCCACACAGACACAGAGGGAAGGGGUUGGGAUGGGGACAGGGUGCACAGCAGGGCGGGGUAGGACCCUAGCCCCU,-0.313
CACAGACAACACGCACCCACACAGACCCAGAGGGAAGGGGUUGGGAUGGGGACAGGGUGCACAGCAGGGCGGGGUAGGACCCCAGCCCCU,-0.709
CAAGUCCUGUGCUACACAUCGUAUGUACCGAAUCGGGGAGGGGUGGGGAAAGGGGAAAGUAUUAUGUUACGCCGUUCGGAUCUGCACUUC,0.186
GCAGGAAGUAAAAACAAAUGGAAAUGCUUCGGAUAGUGGCAGGGGUGGGGGUUGCUAAGGAAAGGGUGGAAAGGGAGUGGGUAAAGAGUU,1.54
UCCUGUGCUACACAUCGUAUGUACCGAAUCGGGGUUUUUUUGGGGAAAGGGGUUUGGGGAAAGUAUUAUGUUACGCCGUUCGGAUCUGCA,-0.957
UAACUUUAGAGGAGGAUCUGAUGGAUAUGGCAGUGGACGAGGAUUUGGGGAUGGCUAUAAUGGGUAUGGAGGAGGACCUGGAGGUGGCAA,-0.984
UUCCUCAAGUCCUGUGCUACACAUCGUAUGUACCGAAUCGGAGGGAGGAGGAAAGUAUUAUGUUACGCCGUUCGGAUCUGCACUUCCAGC,-2.42
GUCCUGUGCUACACAUCGUAUGUACCGAAUCGGGUGGGUUUUUUUGGGUUUUUUUGGGAAAGUAUUAUGUUACGCCGUUCGGAUCUGCAC,-0.077
CACAGACAACACGCACCCACACAGACACAGAGGGAAGGGGUUGGGAUGGGGACAGGGUGCACAGCAGGGCGGGGUAGGACCACAGCCCCU,0.262
CACAGACAACACGCACCCACACAGACACAGAGGGAAGGGGUUGGGAUGGGGACAGGGUGCACAGCAGGGCGGGGUAGGACCCCAGCAAAU,-0.233
